# Measured values from different studies.
# A part holds a random share of what one study measured. Substitutions count along the parent as printed.

# Block 1
# Target: CCND3, cyclin fold, Cln2 fusion (human)
# Technique: yeast growth competition, sequencing
# Sample: yeast
# Setting: weak parent motif
# Relative to: not given
# Direction: higher = stronger binding
# Parent: NPAT docking peptide (human); PCHRRVLCFDSTT; partner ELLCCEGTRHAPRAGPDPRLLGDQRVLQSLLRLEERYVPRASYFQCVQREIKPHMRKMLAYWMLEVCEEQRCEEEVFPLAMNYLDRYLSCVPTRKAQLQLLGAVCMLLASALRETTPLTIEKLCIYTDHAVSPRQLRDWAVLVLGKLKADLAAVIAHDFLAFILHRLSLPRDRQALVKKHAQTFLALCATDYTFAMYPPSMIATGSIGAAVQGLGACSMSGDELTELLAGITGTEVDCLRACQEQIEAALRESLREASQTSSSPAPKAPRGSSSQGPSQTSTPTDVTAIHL
Change,normalised enrichment score
F9L,-0.157
C8A,0.0903
S11A,0.128
D10A,0.115
T13A,0.0238
H3A,0.16
T12A,0.0624

# Block 2
# Target: RNA binding protein fox-1 homolog 2, RRM domain, GST-SBP tag (RBFOX2, Homo sapiens, UniProt O43251-10, residues 100-194)
# Technique: RNA Bind-n-Seq
# Form: RNA
# Sample: in vitro
# Concentration: 365 nM
# Setting: natural RNA segment, single round, ends assumed
# Relative to: no-protein control
# Direction: higher = stronger binding
# All sequences stand within: GGGAGUUCUACAGUCCGACGAUC … UGGAAUUCUCGGGUGCCAA
# Target sequence (chain): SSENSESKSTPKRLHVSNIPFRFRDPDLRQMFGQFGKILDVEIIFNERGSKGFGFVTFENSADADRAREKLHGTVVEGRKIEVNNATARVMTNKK
Sequence,RBNS enrichment (R)
UUUUAAAUUUAUGAUCCAUUUUGUAUGGUCUCAAGUUGGAUGACCUCAUUACUAAUAUUUGUUGUAAAAGUGAAACUUGUUUGCCGACCAAUAAACAACUGAUUGAGAUU,0.38
CCAUUUAAAUUUGUUCAUAGCCUACAUCACCAAGGUCUCUGUGUCAAACCUGUGGCCACUCUAUAUGCACUUUGUUUACUCUUUAUACAAAUAAAUAUACUAAAGACUUU,0.456
AGAAACGAGAUCGGGAAGCAGAAAUAUAGUGCAAUAGUGCAACAUCUCUGAAUCCUUUUAAUCUAGAGAAGGCAUUUCAUAUUUGGGGGCUAAGGUUUCCAGUCAGAUGA,0.278
ACUGAGUCAGGUUUAGGAAGCAAGUUUGGUUGCAUCAAUUAAGCAGGCUCUUUUCAAUUGACUGAUGCUGGGGCCUUCAGUUUUAUUCUCAGUAUAGAUUGCCAGUAUUG,0.977
UGGAGGAUCGCUUGAGCCAAUGAGUUGGAGGCUGCAGUGAGCUAUAAUCACGCCACUGCACUCCAGCCUGGGCUGCAGGGUGAGGUCCUGUCUCUGGAAAAAAAAAAAAA,0.366
UUAAAUGGCAUGUGGCCCUUCCUUGUUUCAGUGACUUAGAAAAGUAAAAGCCAUUUAAAAAAGUUAGCAAGAUUUUUUAUCGACUUCCCAACUGGGCUUCCAGCCUUGUU,0.535
CUGGGUGGGGUGGCAAUGGGAGGACAGGUCAGAGCGCCCUCAUUUGUGGGGCUGCCCCUCCGGGUUUCUCAUCCUGUCCUUGGUGCCUUUUUCUGCCCAACAAGUCCAGG,0.253
AAGCUGGUAACUCCCUCCCAGCAUCCCUGCGGAAGGAGUCAGUUUCUGAGAGUGUGACUUUUCAAGGCGAAUGAUGGGGAAGGGUUCCCCAGUCCCCACAGUGGCCCCAC,0.909
ACUGUUCAUAGAACAGGCCGAUUCUGAUUAGAUUUUAUCAGGGAAUCUGUUAAGAUAUGUUUGGUGACCAAAACGUAUGUGUGAAUAUAGUUCUAGCACUUUUAAAUUUU,0.616
ACGUUUCUACCAGUGUUUCAAUUUAAAGUGCUAGUGUUUAAAAACAUUUUCAAGGGAUAAGGCCUUCUGUACUUUGCUUAUUUGAAGAAUCAGUGGUAGGAGCAGUGAAG,0.588
AAUCCCCUACUGGGGCCAUUUCAAUGGGGUAGUUUUUGGAUUUUUUUCCCCACUCACUUUUUAUUUUUUAAUGAUAAUGGAGAUGUCUGGACCCUUCCUCACCCCACCUG,0.501
GGGGCCAGAGAGGCGGCUCAGGUUGCCCAGCUCUGUGGCCUCAGGACUCUCUGCCUCACCCGCUUCAGCCCAGGGCCCCUGGAGACUGAUCCCCUCUGAGUCCUCUGCCC,0.223

# Block 3
# Target: Ras GTPase-activating protein-binding protein 1, C-terminal RGG region (G3BP1, Homo sapiens, UniProt Q13283)
# UniProt Q13283, sequence (whole entry, looked up): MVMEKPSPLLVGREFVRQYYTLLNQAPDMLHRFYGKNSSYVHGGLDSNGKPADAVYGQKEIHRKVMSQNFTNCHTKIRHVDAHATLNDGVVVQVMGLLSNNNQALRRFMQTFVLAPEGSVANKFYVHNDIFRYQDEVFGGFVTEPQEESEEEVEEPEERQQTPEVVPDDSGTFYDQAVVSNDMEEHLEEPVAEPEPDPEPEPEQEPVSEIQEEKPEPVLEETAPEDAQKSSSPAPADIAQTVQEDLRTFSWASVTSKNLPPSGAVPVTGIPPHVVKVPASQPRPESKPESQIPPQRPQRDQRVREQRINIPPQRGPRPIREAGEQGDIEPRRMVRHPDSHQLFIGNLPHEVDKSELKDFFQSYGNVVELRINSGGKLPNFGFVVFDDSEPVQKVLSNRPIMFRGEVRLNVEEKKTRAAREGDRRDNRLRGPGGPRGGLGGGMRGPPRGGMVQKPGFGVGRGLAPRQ
# Technique: RNA Bind-n-Seq
# Form: RNA
# Sample: in vitro
# Concentration: 1 µM
# Setting: whole 134-nt RNA, ends assumed
# With: 150 mM KCl
# Relative to: input library
# Direction: higher = stronger binding
# All sequences stand within: GGGAGUUCUACAGUCCGACGAUC … UGGAAUUCUCGGGUGUCAAGG
Sequence,log2 enrichment
ACCAUGCAGGUGGGCAUCUUUGGGAAGUGGGGCAAAAAGGGGAUAGGGAGGGGGGUAACACUUUGGGAACAGGUGGUCCCAGGUCGUUUC,-0.928
CCUCAAGUCCUGUGCUACACAUCGUAUGUACCGAAUCGGGUGGGUGGGGUGGGAAAGUAUUAUGUUACGCCGUUCGGAUCUGCACUUCCA,2.02
UGUGCUACACAUCGUAUGUACCGAAUCGGGGCCCCCCCGGGCCCCCCCGGGCCCCCCCGGGGAAAGUAUUAUGUUACGCCGUUCGGAUCU,-2.67
GCAGGAAGUAAAAACAAAUGGAAAUGCUUCGGGUAGUGGCAGGGGUGGGGGUUGCUAAGGAAAGGGUGGGAUGGGAGUGGGUAAAGAGUU,1.48
GUCCUGUGCUACACAUCGUAUGUACCGAAUCGGGCCCCCGGGGCCCCCGGCCCCCGGGGAAAGUAUUAUGUUACGCCGUUCGGAUCUGCA,-2.05
CAAGUCCUGUGCUACACAUCGUAUGUACCGAAUCGGUUUUGGGGUUUUGGUUUUGGAAAGUAUUAUGUUACGCCGUUCGGAUCUGCACUU,-1.35
ACCAUGCAGGUGGGCAUCUUUGGGAAGUGGGGCAAGGGGGGGAUAGGGAGGGGGGUAACACUUUGGGAACAGCUGGUCCCAGGUCGUUUC,2.13
CCUCAAGUCCUGUGCUACACAUCGUAUGUACCGAAUCGGAGGUGGAAAAAGGAAAGUAUUAUGUUACGCCGUUCGGAUCUGCACUUCCAG,-0.819
UCCUGUGCUACACAUCGUAUGUACCGAAUCGGGGAAAAAGGGGAAAAAGGGGAAAAAGGGAAAGUAUUAUGUUACGCCGUUCGGAUCUGC,-0.35

# Block 4
# Target: Protein C-ets-1 (ETS1, Homo sapiens, UniProt P14921, residues 1-441, full length assumed)
# Technique: protein-binding microarray
# Form: double-stranded DNA, one strand shown
# Sample: in vitro
# Concentration: not given
# Setting: k-mer, scored over probes, only values ≥0.25
# Direction: higher = stronger binding
# Construct (chain): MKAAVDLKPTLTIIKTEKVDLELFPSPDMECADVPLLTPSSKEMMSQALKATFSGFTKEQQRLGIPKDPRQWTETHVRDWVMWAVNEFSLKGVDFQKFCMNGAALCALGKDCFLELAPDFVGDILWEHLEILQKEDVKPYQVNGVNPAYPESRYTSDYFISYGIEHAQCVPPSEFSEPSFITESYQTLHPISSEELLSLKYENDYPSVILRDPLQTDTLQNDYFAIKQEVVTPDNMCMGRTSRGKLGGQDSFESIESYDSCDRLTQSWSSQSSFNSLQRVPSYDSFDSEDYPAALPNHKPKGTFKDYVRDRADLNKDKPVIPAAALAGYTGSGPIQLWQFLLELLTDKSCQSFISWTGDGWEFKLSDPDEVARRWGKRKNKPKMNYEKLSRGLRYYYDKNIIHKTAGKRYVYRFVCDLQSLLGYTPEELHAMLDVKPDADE
Sequence,E-score
CTTCCCCC,0.389
GGATATGA,0.415
TCCAGGAA,0.418
CCGGAACG,0.424
ATCCTGCG,0.379
AACGTCCG,0.442
CGGAAGGA,0.457
CTTCCATC,0.281
AAAGCGGA,0.356
CCGGCGGA,0.41
GTCCGGGA,0.289
GACTTCCA,0.391
CAATTTCC,0.444
CACGGATG,0.406
CTTCATCC,0.266
TATGCGGA,0.265
GATGTGGC,0.302
CTACCGGA,0.443
TCCGCCCA,0.369
CGGACGTA,0.42
CTGCATCC,0.398
AACTTCCA,0.323
CGGGGAAA,0.293
CGGATATC,0.462
CGGGGGGA,0.266

# Mixed results
Molecule,target,test,system,conditions,how to read,endpoint,result
"PhoQ, residues 284 288 289 292 302 303 AAQSYM","PhoP, residues 12 14 15 18 19 NMSSL (Escherichia coli, UniProt P23836)","Sort-seq, refers to: YFP reporter",E. coli,"PhoQ-PhoP variant library, with: 10 µM Mg2+","relative to: high Mg2+ state, higher = stronger signaling",fold induction,9.52

# Repeated from above (block 4):
Sequence,E-score
CAATTTCC,0.444
CGGACGTA,0.42
AACGTCCG,0.442
